Experimental data pooled from the literature.
Lines come from different studies, so protocols differ.

Compound = COc1ccccc1C(=O)O[C@H]1[C@H](C)[C@H](O)[C@H](C)[C@@H](O)[C@@H](C)/C=C/C=C(/C)C(=O)NC2=C3NC4(CCN(CC(C)C)CC4)N=C3c3c(c(O)c(C)c4c3C(=O)[C@@](C)(O/C=C/[C@H](OC)[C@H]1C)O4)C2=O; organism = Mycobacteroides abscessus; test system = ATCC 19977 arr deletion; conditions = 90% growth inhibition; MIC = 0.03 µM
Compound = [O-][N+]1=C(c2ccsc2)C2=NCCCN2c2ccccc21; organism = Parvimonas micra; test system = ATCC 3870; MIC = ≤ 0.06 µg/mL
Compound = CC[C@H](C)[C@H](NC(=O)[C@@H]1CC(=O)N[C@@H](CO)C(=O)N[C@@H](CC(C)C)C(=O)NCC(=O)N[C@@H](CO)C(=O)N[C@@H](CO)C(=O)N2CCC[C@H]2C(=O)N[C@@H](Cc2ccc(O)cc2)C(=O)N[C@@H](CC(N)=O)C(=O)N1)C(=O)N[C@@H](CC(C)C)C(=O)NCC(=O)N[C@@H](Cc1ccc(O)cc1)C(=O)N1CCC[C@H]1C(=O)N[C@@H](C)C(=O)N[C@@H](CC(C)C)C(=O)N[C@H](C(=O)N[C@H](C(=O)N[C@H](C(=O)N[C@@H](Cc1ccc(O)cc1)C(=O)N1CCC[C@H]1C(=O)O)[C@@H](C)CC)C(C)C)[C@@H](C)CC; organism = Trichoderma longibrachiatum; MIC = > 128 µg/mL
Compound = CN1C(=O)[C@@H]2NC(=O)[C@@H]3NC(=O)[C@@H](c4ccc(O)cc4)NC(=O)[C@H](NC(=O)C(N)c4ccc(O)cc4)Cc4c[nH]c5cc(ccc45)-c4cc3cc(c4O)Oc3ccc(cc3)C[C@H]1C(=O)N[C@@H](C(=O)O)c1ccc(O)c(c1)Oc1ccc2cc1 (stereo partly drawn); organism = Enterococcus faecium; test system = WCC 0506, VRE-A; MIC = 4 to 8 µg/mL
Compound = Cc1cccc(C)c1SCC1OC(OC2C(N)CC(N)C(OC3OC(CN)C(O)CC3N)C2O)C(O)C(N)C1O (stereo not drawn); organism = Bacillus cereus; test system = ATCC 11778; MIC = 37.5 µg/mL
Compound = CN[C@@H]1[C@H](O)[C@H](NC)[C@H]2O[C@]3(O)[C@H](O[C@@H]2[C@H]1O)O[C@H](C)C[C@@]3(O)CNCCc1ccc(F)cc1; organism = Mycobacteroides abscessus; test system = ATCC 19977 ∆whiB7; conditions = 120 h; MIC = 1 to 2 µg/mL
Compound = CCCCCCCCCCCCCCCCCCSCC1OC(OC2C(N)CC(N)C(OC3OC(CN)C(O)CC3N)C2O)C(O)C(N)C1O (stereo not drawn); organism = Shigella; test system = clinical isolate; MIC = > 150 µg/mL
Compound = CN[C@@H]1[C@H](O)[C@H](NC)[C@H]2O[C@]3(O)[C@H](O[C@@H]2[C@H]1O)O[C@H](C)C[C@]3(O)CNCc1ccc(OC(F)(F)F)cc1; organism = Streptococcus pyogenes; test system = ATCC 700294; MIC = > 200 µg/mL
Compound = CC[C@H](C)[C@H](NC(=O)[C@H](CCCCN)NC(=O)CNC(=O)[C@H](CC(C)C)NC(=O)[C@H](CC(C)C)NC(=O)[C@H](Cc1c[nH]cn1)NC(=O)[C@H](Cc1ccccc1)NC(=O)[C@@H](N)C(C)C)C(=O)N[C@H](C(=O)N[C@@H](Cc1c[nH]cn1)C(=O)N[C@@H](Cc1c[nH]cn1)C(=O)N[C@H](C(=O)NCC(=O)N[C@@H](CC(N)=O)C(=O)N[C@@H](Cc1ccccc1)C(=O)N[C@H](C(=O)N[C@@H](Cc1ccc(O)c(O)c1)C(=O)NCC(=O)N[C@@H](Cc1ccccc1)C(=O)N[C@@H](CO)C(=O)N[C@@H](Cc1c[nH]cn1)C(=O)N[C@H](C(=O)N[C@@H](Cc1ccccc1)C(N)=O)C(C)C)C(C)C)C(C)C)[C@@H](C)CC; organism = Enterobacter cloacae; assay = broth microdilution; test system = AR 0136; conditions = pH 5.5; MIC = 16 µM
Compound = CC[C@H](C)[C@H](NC(=O)[C@H](CO)NC(=O)[C@H](CO)NC(=O)[C@H](Cc1ccccc1)NC(=O)CN)C(=O)N[C@@H](Cc1ccccc1)C(=O)N[C@@H](CCCNC(=N)N)C(=O)NCC(=O)N[C@H](C(=O)N[C@@H](C)C(=O)N[C@@H](CCCCN)C(N)=O)C(C)C; organism = Escherichia coli; test system = ATCC 8739; conditions = 20% FBS; MIC = > 128 µM
Compound = CC[C@H](C)[C@H](NC(=O)[C@@H](NC(=O)CN)C(C)C)C(=O)N[C@@H](Cc1ccccc1)C(=O)N[C@@H](CC(N)=O)C(=O)N[C@@H](C)C(=O)N[C@@H](CC(C)C)C(=O)N[C@@H](CCCCN)C(=O)NCC(=O)N[C@H](C(=O)N[C@@H](C)C(=O)N[C@@H](CCCCN)C(=O)N[C@H](C(=O)N[C@H](C(=O)N[C@@H](C)C(=O)N[C@@H](C)C(=O)N[C@@H](CCC(N)=O)C(=O)N[C@@H](CC(C)C)C(=O)N[C@@H](CC(C)C)C(=O)N[C@@H](CCCCN)C(=O)N[C@@H](CCCCN)C(=O)N[C@@H](C)C(=O)N[C@@H](CCCNC(=N)N)C(=O)N[C@H]1CSSC[C@@H](C(=O)O)NC(=O)[C@H](CO)NC(=O)[C@H](CCCCN)NC(=O)[C@H](CC(=O)O)NC(=O)[C@H](CC(C)C)NC(=O)[C@H](CCCCN)NC1=O)C(C)C)[C@@H](C)O)C(C)C; organism = Staphylococcus aureus; test system = MRSA NCTC 12493; conditions = with: NH4Cl 6 µM; MIC = 2 µM
Compound = O=[N+]([O-])c1ccc(C2=[N+]([O-])c3ccccc3N3CCCN=C23)cc1; organism = Parvimonas micra; test system = ATCC 3870; MIC = ≤ 0.06 µg/mL
Compound = CN[C@@H]1[C@H](O)[C@H](NC)[C@H]2O[C@]3(O)[C@H](O[C@@H]2[C@H]1O)O[C@H](C)C[C@]3(O)CNCc1ccc(F)cc1; organism = Streptococcus pyogenes; test system = ATCC 700294; MIC = 100 µg/mL
Compound = CC[C@@H](C)[C@@H](NC(=O)[C@@H](C)NC(=O)[C@@H](CCCCN)NC(=O)[C@@H](CC(C)C)NC(=O)[C@@H](C)NC(=O)[C@H](NC(=O)[C@@H](Cc1c[nH]cn1)NC(=O)[C@@H](CC(C)C)NC(=O)[C@H](NC(=O)[C@H](NC(=O)[C@@H](CCCCN)NC(=O)[C@@H](CCCCN)NC(=O)[C@@H](C)NC(=O)[C@@H](CO)NC(=O)[C@@H](CCCCN)NC(=O)[C@@H](Cc1ccccc1)NC(=O)[C@H](NC(=O)[C@@H](CCCCN)NC(=O)[C@@H](CC(C)C)NC(=O)[C@@H](Cc1ccccc1)NC(=O)[C@@H](CO)NC(=O)[C@@H](CCCCN)NC(=O)[C@@H](Cc1c[nH]c2ccccc12)NC(=O)[C@@H](CCCCN)NC(C)=O)[C@H](C)O)[C@H](C)O)C(C)C)[C@H](C)O)C(=O)N[C@H](CO)C(=O)N[C@H](CO)C(N)=O; organism = Acinetobacter baumannii; test system = 649, Mueller-Hinton broth; conditions = 24 h, 37 °C; MIC = 0.8 µM
Compound = [O-][N+]1=C(c2ccccc2)C2=NCCCN2c2ncccc21; organism = Parvimonas micra; test system = ATCC 3870; MIC = ≤ 0.06 µg/mL
Compound = CN[C@@H]1[C@H](O)[C@H](NC)[C@H]2O[C@]3(O)[C@H](O[C@@H]2[C@H]1O)O[C@H](C)C[C@@]3(O)CNCCC1CCOCC1; organism = Mycobacteroides abscessus; test system = ATCC 19977 whiB7 MAB_2355 deleted; conditions = 120 h; MIC = 8 µg/mL
Compound = CCCCc1ccc(-c2nc(C)c(C(C)=NNC(=N)N)s2)cc1; organism = Staphylococcus aureus; test system = NRS1 VISA; MIC = 1.3 µg/mL
Compound = [O-][N+]1=C(Cc2ccccc2)C2=NCCCN2c2ccccc21; organism = Parvimonas micra; test system = ATCC 3870; MIC = 0.125 µg/mL
Compound = CN[C@@H]1[C@H](O)[C@H](NC)[C@H]2O[C@]3(O)[C@H](O[C@@H]2[C@H]1O)O[C@H](C)C[C@@]3(O)CNCc1ccc(F)cc1; organism = Mycobacteroides abscessus; test system = ATCC 19977 ∆tap; conditions = 120 h; MIC = > 128 µg/mL
Compound = CN1C(=O)[C@@H]2NC(=O)[C@@H]3NC(=O)[C@@H](c4ccc(O)cc4)NC(=O)[C@H](NC(=O)C(NCc4cc(F)cc(F)c4F)c4ccc(O)cc4)Cc4c[nH]c5cc(ccc45)-c4cc3cc(c4O)Oc3ccc(cc3)C[C@H]1C(=O)N[C@@H](C(=O)O)c1ccc(O)c(c1)Oc1ccc2cc1 (stereo partly drawn); organism = Enterococcus faecium; test system = brain heart infusion medium; MIC = 4 µg/mL
Compound = CO[C@H]1/C=C/O[C@@]2(C)Oc3c(C)c(O)c4c(c3C2=O)C2=NC3(CCN(CC(C)C)CC3)NC2=C(NC(=O)/C(C)=C\C=C\[C@H](C)[C@H](O)[C@@H](C)[C@@H](O)[C@@H](C)[C@H](OC(=O)c2ccccc2-c2ccccc2)[C@@H]1C)C4=O; organism = Mycobacteroides abscessus; test system = ATCC 19977 arr deletion; conditions = 90% growth inhibition; MIC = 0.14 µM
Compound = CC[C@H](C)CCCCC(=O)N[C@@H](CCN)C(=O)N[C@H](C(=O)N[C@H](CO)C(=O)N[C@H]1CCNC(=O)[C@H](CC(C)C)NC(=O)[C@H](CCN)NC(=O)[C@H](CCN)NC(=O)[C@H]([C@@H](C)CC)NC(=O)[C@@H](CC(C)C)NC(=O)[C@H](CCN)NC1=O)[C@@H](C)O; organism = Klebsiella pneumoniae, Acinetobacter baumannii; conditions = with: lipid A or LPS; MIC = increased
Compound = CN(C)CCCNC(=O)[C@@H]1NC(=O)[C@@H]2Cc3ccc(cc3)Oc3cc4cc(c3O)-c3ccc5c(c[nH]c5c3)C[C@@H](NC(=O)C(N)c3ccc(O)cc3)C(=O)N[C@H](c3ccc(O)cc3)C(=O)N[C@H]4C(=O)N[C@@H](C(=O)N2C)c2ccc(cc2)Oc2cc1ccc2O (stereo partly drawn); organism = Enterococcus faecium; test system = brain heart infusion medium; MIC = 2 to 4 µg/mL
Compound = C[N+]1=C2C(c3ccccc3)=[N+]([O-])c3ccccc3N2CCC1; organism = Porphyromonas sp.; MIC = 4 µg/mL
Compound = N=C(N)NCCC[C@@H]1NC(=O)[C@H](CCCNC(=N)N)NC(=O)[C@H](CCCNC(=N)N)NC(=O)[C@H](CCCNC(=N)N)NC(=O)[C@H](Cc2c[nH]c3ccccc23)NC(=O)[C@H](CCCNC(=N)N)NC(=O)[C@H](CCCNC(=N)N)NC(=O)[C@@H](N)CCCCn2cc(nn2)C[C@@H](C(N)=O)NC1=O; organism = Bacillus cereus; conditions = 24 h, 37 °C; MIC = 62.5 µg/mL
Compound = CN(C)CCCNC(=O)[C@@H]1NC(=O)[C@@H]2Cc3ccc(cc3)Oc3cc4cc(c3O)-c3ccc5c(c[nH]c5c3)C[C@@H](NC(=O)C(NC(=O)CCCCCN)c3ccc(O)cc3)C(=O)N[C@H](c3ccc(O)cc3)C(=O)N[C@H]4C(=O)N[C@@H](C(=O)N2C)c2ccc(cc2)Oc2cc1ccc2O (stereo partly drawn); organism = Enterococcus faecium; test system = WCC 0500, VRE-A; MIC = 0.5 to 1 µg/mL
Compound = CO[C@H]1/C=C/O[C@@]2(C)Oc3c(C)c(O)c4c(c3C2=O)C2=NC3(CCN(CC(C)C)CC3)NC2=C(NC(=O)/C(C)=C\C=C\[C@H](C)[C@H](O)[C@@H](C)[C@@H](O)[C@@H](C)[C@H](OC(=O)c2ccccc2C(F)(F)F)[C@@H]1C)C4=O; organism = Mycobacteroides abscessus; test system = ATCC 19977 arr deletion; conditions = 90% growth inhibition; MIC = 0.12 µM

Repeated from above:
Compound = C[N+]1=C2C(c3ccccc3)=[N+]([O-])c3ccccc3N2CCC1; organism = Porphyromonas sp.; MIC = 4 µg/mL
